Results of several laboratories.
Parts stem from different laboratories: compare values within a part only.

Study 1 — technique: RNA Bind-n-Seq; molecule type: RNA; sample: in vitro; concentration: 365 nM; relative to: no-protein control; reading: higher = stronger binding
Target: RNA binding protein fox-1 homolog 2, RRM domain, GST-SBP tag (RBFOX2, Homo sapiens, UniProt O43251-10, residues 100-194)
Setting: natural RNA segment, single round, ends assumed
All sequences stand within: GGGAGUUCUACAGUCCGACGAUC … UGGAAUUCUCGGGUGCCAA
Construct (chain): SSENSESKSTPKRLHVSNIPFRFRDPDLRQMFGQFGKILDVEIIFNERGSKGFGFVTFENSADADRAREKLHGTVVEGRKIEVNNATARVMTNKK
Oligonucleotide	RBNS enrichment (R)
CCUGUGAAGACCCCCAGGCUUUGUCAUAGGAGGUCGUUCAGCUUCCCCAAAGUCAGAGGUGAUUUGAUUUGGGGAAGACUGAAUAUUCACACCUAAGUCGUGAGCAUAUC	0.224
ACACUUCUGUUAAAAUGCAGGAGGUAGUGUCAUAAUGCCGUCUUUAUAUUCUUAAUAAAUAGCACUUUGACAAGAACAGGACUGUAAAUGAUGAAGUACAAGACAAAUAC	0.462
AUGUAGCGAUAUUAAAAAAAAUGUAGCGAUAUAAUUAACCAGCCAUUAAAAAUUUACUUCUACAGAUUUAGUGUCAGUUGAAUUUUAUGUAUUAGGUUCUCAUAUACUGC	0.609
CCUUUUAGGGGCUCAUUUAAAAAGAGAGCAAGCUAGAAAGAAAAAGAAAGGACUGUCCGUCUCCCUCUGUCUCCUCUCCCCCAAACCCAGCCUCCACCCGCACAAAGGGG	0.67
ACACCCGAUUCCUGCCCAAACAGCUGUAUUUAUAUAAGUCUGUUAUUUAUUAUUAAUUUAUUGGGGUGACCUUCUUGGGGACUCGGGGGCUGGUCUGAUGGAACUGUGUA	0.438
ACUCCAGGGGUGGUGUCUCGGCCGCCCCUACCAGCUGGCUGAGCCCCCUGGCCUCCUGCGCUCCCUCACUUCCCUCAGUUCCCAAAGCUGCCCAGUCCAUGGGGACAGAA	0.245
CAGAGCCCAUCUGCCUUACAGCCAGCCGGACAGACGUCCUACUACAUGCCACCCCCUCAGAGGACGUCAGUUCAGGGCACGUCUCAAUAUGAGUCAAGUGCCAGCUGGAC	0.194
CCACUCAACUACCUCACCCACCUGCUCUGGCUCAAGGCUGAUGGCAAUCGGCUGCGAAGUGCCCAGAUGAAUGAACUGCCCUACCUGCAGAUUGCUAGUUUUGCUUAUAA	5.49
AAGACAAAUUAGUGUUUAGUAAUUGCAUCAUCUCUGUGCUUACCUAUACAAACAUAAGUUUAUUUUAUAUGCCCAGAUGUCUACAGAGACCCUUUUUGUAAAUGUCAAGG	0.536
CCAACCAACUUAAGAUUCCAUAAGUAGAACAAGCUAGAUCCUAACCUGAAAUAGCCAUGAGCAAAGCCCACUGCCUUUACAGUCAGGCAGUUGUGCCCAGACCUUCAUGA	0.387
AAAAAAGUCAAGAAACUUUGUAAAAUAUCGUGUGUGUGAUUCCUUGUAAAAUAUUUUCAAAUGGUUUAUUACAGAAGAUCAGUUAUUAAAUAAUGUUCAUAUUUUCACUU	1.38
UGACCCCAGGGCCUGGACCUGCAGGAUCAGGUUAGGGCGAGCGCUACCUCUCCAGCCUCAGCUCUCAGUUGCAGCCCUGCUGCUGCCUGCCUGGACUUGGCCCCUGCCAC	0.314

Study 2 — technique: protein binding microarray; molecule type: double-stranded DNA, one strand shown; sample: in vitro; concentration: not given; relative to: not given; reading: higher = stronger binding
Target: Histone acetyltransferase KAT6A, both winged helices, GST fusion (KAT6A, Homo sapiens, UniProt Q92794, residues 1-181)
Setting: 8-mer, flanks averaged, mean of 2 arrays, mostly near background
Construct (chain): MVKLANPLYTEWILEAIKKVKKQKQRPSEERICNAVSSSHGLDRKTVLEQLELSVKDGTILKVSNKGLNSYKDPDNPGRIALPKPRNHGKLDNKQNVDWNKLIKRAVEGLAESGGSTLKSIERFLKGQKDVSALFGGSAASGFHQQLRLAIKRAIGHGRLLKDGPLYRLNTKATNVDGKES
Oligonucleotide	E-score
ACTAACCG	0.112
ATGCGGAG	-0.00234
CAATGTAA	0.0354
ACCCCCCA	-0.369
ACATGAAG	0.0161
CTGCGGAA	0.164
CCATCTGA	-0.202
GTCCCAAA	-0.069
GACCATGA	-0.0801
AGACTAGC	-0.102
GAAGCAGA	-0.298
AAGGACCA	-0.156
CTGGGTAA	-0.215
GGCCCGTA	0.211
GCTTCATA	0.0828
CTCACAAG	-0.0537
GGCGTTTA	0.101
CGATTGCC	0.106
CTTAAGTC	-0.17
ACTGTATA	-0.15
ACACGTCC	0.0521
CATGGCGG	0.194

Study 3 — technique: RNA Bind-n-Seq; molecule type: RNA; sample: in vitro; concentration: not given; relative to: input RNA pool; reading: higher = stronger binding
Target: RING finger protein unkempt homolog, zinc fingers 1-6, GST-SBP tag (UNK, Homo sapiens, UniProt Q9C0B0, residues 30-357)
Chain of UniProt Q9C0B0 (30-357, looked up): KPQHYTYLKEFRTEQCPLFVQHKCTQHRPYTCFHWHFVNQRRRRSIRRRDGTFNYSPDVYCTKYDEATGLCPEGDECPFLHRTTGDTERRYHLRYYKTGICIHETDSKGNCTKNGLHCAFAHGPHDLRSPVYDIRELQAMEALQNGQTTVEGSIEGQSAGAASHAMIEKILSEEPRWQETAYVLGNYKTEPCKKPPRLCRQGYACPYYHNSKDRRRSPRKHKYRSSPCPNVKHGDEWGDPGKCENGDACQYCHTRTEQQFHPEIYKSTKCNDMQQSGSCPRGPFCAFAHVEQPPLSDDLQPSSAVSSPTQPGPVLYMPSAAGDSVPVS
Setting: RNA with constant flanks, human and mouse sites, ends assumed
All sequences stand within: GGGAGUUCUACAGUCCGACGAUC … CAACAGAGGAUUGAGCAUCA
Oligonucleotide	bound/input enrichment [ratio]
GCUGGAUCUUCUAAAUACCAGUGGGGCAUUAUGAAAUCCCUUGGCCUGUCUGAUGAAGAGAUAGUAAAAUUUUCUGAAGCAGAACAUUGGCUUGAUUAUUUCCCGCCACUGGCUAUUCAG	0.154
AGUUUCCUGCAGUAGGAGGGCAGAUGACUGGCAUCCUUGCUGUAAGGAAGAGCUUUUUCCUUGUGAAUGGGCCUCUUGGCUGUACCCUAGGGUGUGGGAAUUUGCUAGAGUUCCCUGACC	0.102
GGAAAUAUUCUGUUGACAUCGCUGGAAGUUCACAAUGAAAUGAAUGAGGUCUCAGGCGGCAUUGGCGAUACCAGGAAUUCAGCAAUAUCCUUUGACAACUCAGGAAUCCAGUACAGGAAA	0.148
UUGACAAAAGUACCAUGGAGUUUUAUGAGUCAGCAUAUUUUAUUGUUCUUAUUCCUUCAAUAGUUAUUACAGUAAUUUUCCUCUUCUUCUGGCUUUUCAUGAAAGAAACAUUAUAUGAUG	5.24
AUACAGGCAGCCCAUGAUGCCGUGGCACAGGAAGGCCAAUGUCGGGUAGAUGACAAGGUGAAUUUCCAUUUUAUUCUGUUUAACAACGUGGAUGGCCACCUCUAUGAACUUGAUGGACGA	0.226
GUCAACCGUGUUACUAUACUCUGUGACAAAUUUAGUGGCCAUCCCAAAGGGUUUGCAUAUAUAGAGUUCUCGGACAAAGAGUCAGUGAGGACGUCCCUGGCCUUAGAUGAGUCCCUGUUC	0.838
ACCCCUGCUUUGUACAUGCUGUCUCCCUUCAGUCCUCUCAGAAGAAUAUCUAUUAAGAUUUUAGUGCACUCCUUAUUCAGCAUGCUAAUCAUGUGCACAAUUCUGACAAACUGCAUAUUC	0.237
UUCAGGACUUUUCUUGGGGUUUCAGAAUGGGUUUAUAUGAUUUUCUUUAUUAUUUUUUGGUAGUUUUAUUUAUUCUAUCAGUCUUUUUAACAAAUGUUUAUUGCUGCACCUCCUCCCCAG	26.5
AGCAAAAAUCAAAUUAAAGUAGAUCUUGUAGAUGAGAAUUUUACAGAAUUAAGAGGAGAAAUAGCAGGACCUCCAGACACACCGUAUGAAGGUGGAAGAUAUCAACUAGAGAUAAAAAUA	3.53
CUGGAUUUUUUUUUCUUUAUAUUUUGGGUACUGGAGCUUUUAAAAAUGUUUGGUUUCAGGUAUUUUUAUUCAUGUGAAGUGUAUAUGAUUCUCUUGAGAUAAGGUUUUAAGCUAAAAUGU	0.913
UAUUUACUCUCUUGGUCUUGGUAGCCCUAUUAUAUCAUUGCAGACACAGUGUUGUGCAUGUGUGUAUUGUAUAUGUGCACCAGCAUCAAACAUUGUGUAUCUGGAAGGAAAGCAGCAUGU	0.222

Study 4 — technique: protein-binding microarray; molecule type: double-stranded DNA, one strand shown; sample: in vitro; concentration: 250 nM; setting: 60-bp whole probe; with: salmon DNA 0.4 mg/ml; relative to: random background probes; reading: higher = stronger binding; all sequences stand within: GCCTAGCAC … GTCTTGATTCGCTTGACGCTGCTG
Target: Interferon regulatory factor 5, full length, phosphomimetic (IRF5, Homo sapiens, UniProt Q13568-2, residues 1-514, K96S/S451D/S453D/S456D/S462D)
Oligonucleotide	log fluorescence [z-score]
TCAGGTTCTCTTTTATTACTGTGCTAG	0.506
TTCGCTTTCTTTACCACATTGTGCTAG	2.25
GACGAGATCAGTCTCGAGACGTGCTAG	0.101
GACGATTTCAGTCTCGAAACGTGCTAG	2.1
TTAGATTTCGGTTTCGATTAGTGCTAG	11.2
GACGGATTGCTACTGCTGACGTGCTAG	-0.428
GACGGTTTCGGTTCAGGGACGTGCTAG	9.66
TTGTGTTGCTGTTTGAGGAAGTGCTAG	0.355
TTAGGTCTCCTACAGCTTTAGTGCTAG	-0.237
TCATCTTGCTTTTTAGAACTGTGCTAG	0.494
GACGAGATCGGGTATCGAGACGTGCTA	0.824
TTAGAACTGATACTGGATTAGTGCTAG	0.601
CTAGGTATCGGTATCGGTTAGTGCTAG	9.16
TTAGGACTGCTTATCCTTTGGTGCTAG	-0.281
TCATCTCTGGGCTGTGGGACTGTGCTA	-0.0229
TTAGAGCTCAGTATCGATTAGTGCTAG	6.6
TTAGGTTTCCGACTGGGTTAGTGCTAG	0.0831
GACGATTTCAGACTGGAGAAGTGCTAG	0.0434
TTAGATTTCGGGCCTGGATTAGTGCTA	2.32
GACCATTTCGGGTTTCGAGACGTGCTA	4.69
TGAGATTTCAGTCTCGATTAGTGCTAG	1.94

A few entries again (study 2):
Oligonucleotide	E-score
GTCCCAAA	-0.069
GACCATGA	-0.0801
AGACTAGC	-0.102
GAAGCAGA	-0.298
